Assay results collected from several papers.
Each line is one published result; not all experiments were run side by side. Numbers after ± are the reported error.
F11: Coagulation factor XI (F11, Homo sapiens, UniProt P03951)
UniProt P03951, sequence (whole entry, looked up): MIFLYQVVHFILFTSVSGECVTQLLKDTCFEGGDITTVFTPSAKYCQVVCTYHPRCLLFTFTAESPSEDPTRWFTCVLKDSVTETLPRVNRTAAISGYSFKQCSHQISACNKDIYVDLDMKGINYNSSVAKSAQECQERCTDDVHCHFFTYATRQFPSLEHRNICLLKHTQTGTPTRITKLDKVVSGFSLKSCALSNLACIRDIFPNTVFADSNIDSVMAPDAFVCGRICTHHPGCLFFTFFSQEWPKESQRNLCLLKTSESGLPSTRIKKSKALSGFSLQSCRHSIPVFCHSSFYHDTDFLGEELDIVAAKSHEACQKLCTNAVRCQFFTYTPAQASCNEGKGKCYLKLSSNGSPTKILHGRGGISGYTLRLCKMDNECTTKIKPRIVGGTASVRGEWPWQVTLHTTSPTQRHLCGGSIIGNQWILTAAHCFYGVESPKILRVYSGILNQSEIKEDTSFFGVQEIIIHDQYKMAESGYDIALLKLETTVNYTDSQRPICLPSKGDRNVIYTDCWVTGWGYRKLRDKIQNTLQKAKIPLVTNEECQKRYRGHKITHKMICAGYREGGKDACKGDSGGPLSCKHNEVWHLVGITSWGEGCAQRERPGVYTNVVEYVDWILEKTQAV
TYMS: Thymidylate synthase (TYMS, Homo sapiens, UniProt P04818)
UniProt P04818, sequence (whole entry, looked up): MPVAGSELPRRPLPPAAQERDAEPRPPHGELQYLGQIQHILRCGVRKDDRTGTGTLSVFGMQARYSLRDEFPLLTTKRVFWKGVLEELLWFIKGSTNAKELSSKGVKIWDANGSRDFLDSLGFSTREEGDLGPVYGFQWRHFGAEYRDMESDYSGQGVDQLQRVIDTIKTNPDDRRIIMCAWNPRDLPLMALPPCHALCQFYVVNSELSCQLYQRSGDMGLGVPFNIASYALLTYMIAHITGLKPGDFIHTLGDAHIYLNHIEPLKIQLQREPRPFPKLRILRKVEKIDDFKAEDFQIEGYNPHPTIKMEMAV
TGFBR1: TGF-beta receptor type-1 (TGFBR1, Homo sapiens, UniProt P36897)
UniProt P36897, sequence (whole entry, looked up): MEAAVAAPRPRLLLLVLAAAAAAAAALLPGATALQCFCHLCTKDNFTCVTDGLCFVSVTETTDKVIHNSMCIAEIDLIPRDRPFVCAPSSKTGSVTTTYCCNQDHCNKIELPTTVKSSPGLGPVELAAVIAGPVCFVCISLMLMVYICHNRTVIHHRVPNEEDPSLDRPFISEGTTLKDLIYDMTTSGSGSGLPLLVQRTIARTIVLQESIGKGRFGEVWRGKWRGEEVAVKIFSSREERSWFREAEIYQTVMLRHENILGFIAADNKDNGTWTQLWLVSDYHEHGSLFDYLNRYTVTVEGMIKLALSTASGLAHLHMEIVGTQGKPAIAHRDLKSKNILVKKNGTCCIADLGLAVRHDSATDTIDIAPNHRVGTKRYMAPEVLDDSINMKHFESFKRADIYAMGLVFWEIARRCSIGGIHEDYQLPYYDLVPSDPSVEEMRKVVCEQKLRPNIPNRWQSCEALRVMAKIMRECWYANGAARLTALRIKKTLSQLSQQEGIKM
Protein lin-28 homolog A: Protein lin-28 homolog A (Mus musculus, UniProt Q8K3Y3)
UniProt Q8K3Y3, sequence (whole entry, looked up): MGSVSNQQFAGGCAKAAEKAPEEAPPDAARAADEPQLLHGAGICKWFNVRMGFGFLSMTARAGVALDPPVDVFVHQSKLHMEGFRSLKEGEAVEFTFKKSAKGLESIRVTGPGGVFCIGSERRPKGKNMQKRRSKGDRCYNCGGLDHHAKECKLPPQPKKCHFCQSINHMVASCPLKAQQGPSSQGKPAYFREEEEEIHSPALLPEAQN
DCN1-like protein 1 PONY domain: DCN1-like protein 1, PONY domain (Homo sapiens, UniProt Q96GG9)
JAK2: Tyrosine-protein kinase JAK2 (JAK2, Homo sapiens, UniProt O60674)
UniProt O60674, sequence (whole entry, looked up): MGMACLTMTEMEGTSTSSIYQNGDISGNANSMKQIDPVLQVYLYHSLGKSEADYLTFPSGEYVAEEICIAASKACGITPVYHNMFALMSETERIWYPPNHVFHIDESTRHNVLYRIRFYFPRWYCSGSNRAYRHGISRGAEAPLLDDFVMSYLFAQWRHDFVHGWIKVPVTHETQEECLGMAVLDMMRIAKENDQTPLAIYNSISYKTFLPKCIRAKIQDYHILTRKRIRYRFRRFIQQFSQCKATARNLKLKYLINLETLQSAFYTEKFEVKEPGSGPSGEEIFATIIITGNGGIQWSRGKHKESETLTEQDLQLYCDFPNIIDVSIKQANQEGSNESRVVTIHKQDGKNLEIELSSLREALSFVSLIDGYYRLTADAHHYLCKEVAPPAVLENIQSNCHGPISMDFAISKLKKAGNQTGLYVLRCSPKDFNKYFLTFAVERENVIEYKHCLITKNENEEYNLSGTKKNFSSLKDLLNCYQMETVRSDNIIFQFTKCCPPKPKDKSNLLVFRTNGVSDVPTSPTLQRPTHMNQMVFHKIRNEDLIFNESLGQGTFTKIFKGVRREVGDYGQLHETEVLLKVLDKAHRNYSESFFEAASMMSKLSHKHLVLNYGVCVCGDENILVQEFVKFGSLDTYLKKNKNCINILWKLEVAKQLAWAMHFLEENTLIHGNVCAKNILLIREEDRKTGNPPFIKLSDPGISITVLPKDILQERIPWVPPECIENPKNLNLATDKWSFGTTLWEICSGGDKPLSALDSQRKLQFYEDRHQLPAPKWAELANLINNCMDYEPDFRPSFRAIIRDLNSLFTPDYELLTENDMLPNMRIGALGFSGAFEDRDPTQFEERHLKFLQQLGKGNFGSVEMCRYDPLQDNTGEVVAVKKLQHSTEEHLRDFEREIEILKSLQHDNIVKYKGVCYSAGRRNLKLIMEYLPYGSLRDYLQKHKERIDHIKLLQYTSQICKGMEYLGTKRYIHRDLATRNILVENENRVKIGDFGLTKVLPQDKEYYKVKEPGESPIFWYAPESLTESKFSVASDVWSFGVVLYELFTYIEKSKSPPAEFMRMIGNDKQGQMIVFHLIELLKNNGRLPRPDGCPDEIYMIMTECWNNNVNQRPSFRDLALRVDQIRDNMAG
PARP1: Poly [ADP-ribose] polymerase 1 (PARP1, Homo sapiens, UniProt P09874)
UniProt P09874, sequence (whole entry, looked up): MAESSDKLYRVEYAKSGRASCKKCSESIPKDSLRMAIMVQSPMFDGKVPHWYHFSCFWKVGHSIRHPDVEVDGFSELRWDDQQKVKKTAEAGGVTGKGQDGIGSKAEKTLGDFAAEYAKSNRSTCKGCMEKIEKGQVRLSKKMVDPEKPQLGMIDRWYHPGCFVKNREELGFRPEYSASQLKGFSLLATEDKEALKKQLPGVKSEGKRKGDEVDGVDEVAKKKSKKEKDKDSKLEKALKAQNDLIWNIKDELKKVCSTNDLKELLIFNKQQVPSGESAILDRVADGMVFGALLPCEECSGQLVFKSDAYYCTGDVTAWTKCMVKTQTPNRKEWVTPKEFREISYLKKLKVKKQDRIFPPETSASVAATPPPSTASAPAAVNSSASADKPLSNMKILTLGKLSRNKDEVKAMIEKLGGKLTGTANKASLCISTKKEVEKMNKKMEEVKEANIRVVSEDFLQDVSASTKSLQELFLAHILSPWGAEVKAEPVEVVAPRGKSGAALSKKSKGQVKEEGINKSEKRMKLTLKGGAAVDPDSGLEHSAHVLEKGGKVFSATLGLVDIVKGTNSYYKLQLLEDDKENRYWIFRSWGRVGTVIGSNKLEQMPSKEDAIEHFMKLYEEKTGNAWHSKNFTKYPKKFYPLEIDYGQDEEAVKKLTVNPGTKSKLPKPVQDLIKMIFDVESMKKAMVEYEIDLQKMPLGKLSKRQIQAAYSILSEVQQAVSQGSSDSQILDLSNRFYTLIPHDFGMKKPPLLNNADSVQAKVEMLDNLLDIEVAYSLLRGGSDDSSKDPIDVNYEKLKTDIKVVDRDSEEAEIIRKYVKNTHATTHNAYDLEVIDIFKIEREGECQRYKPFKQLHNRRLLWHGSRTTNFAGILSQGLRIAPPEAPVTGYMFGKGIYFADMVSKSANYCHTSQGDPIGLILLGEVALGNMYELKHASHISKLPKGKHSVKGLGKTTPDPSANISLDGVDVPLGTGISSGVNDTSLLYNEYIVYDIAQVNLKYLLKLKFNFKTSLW
UniProt P10599, sequence (whole entry, looked up): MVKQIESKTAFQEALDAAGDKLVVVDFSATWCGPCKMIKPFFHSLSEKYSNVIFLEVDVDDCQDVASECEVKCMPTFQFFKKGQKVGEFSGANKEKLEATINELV
UniProt Q8IWT6, sequence (whole entry, unmodified, looked up): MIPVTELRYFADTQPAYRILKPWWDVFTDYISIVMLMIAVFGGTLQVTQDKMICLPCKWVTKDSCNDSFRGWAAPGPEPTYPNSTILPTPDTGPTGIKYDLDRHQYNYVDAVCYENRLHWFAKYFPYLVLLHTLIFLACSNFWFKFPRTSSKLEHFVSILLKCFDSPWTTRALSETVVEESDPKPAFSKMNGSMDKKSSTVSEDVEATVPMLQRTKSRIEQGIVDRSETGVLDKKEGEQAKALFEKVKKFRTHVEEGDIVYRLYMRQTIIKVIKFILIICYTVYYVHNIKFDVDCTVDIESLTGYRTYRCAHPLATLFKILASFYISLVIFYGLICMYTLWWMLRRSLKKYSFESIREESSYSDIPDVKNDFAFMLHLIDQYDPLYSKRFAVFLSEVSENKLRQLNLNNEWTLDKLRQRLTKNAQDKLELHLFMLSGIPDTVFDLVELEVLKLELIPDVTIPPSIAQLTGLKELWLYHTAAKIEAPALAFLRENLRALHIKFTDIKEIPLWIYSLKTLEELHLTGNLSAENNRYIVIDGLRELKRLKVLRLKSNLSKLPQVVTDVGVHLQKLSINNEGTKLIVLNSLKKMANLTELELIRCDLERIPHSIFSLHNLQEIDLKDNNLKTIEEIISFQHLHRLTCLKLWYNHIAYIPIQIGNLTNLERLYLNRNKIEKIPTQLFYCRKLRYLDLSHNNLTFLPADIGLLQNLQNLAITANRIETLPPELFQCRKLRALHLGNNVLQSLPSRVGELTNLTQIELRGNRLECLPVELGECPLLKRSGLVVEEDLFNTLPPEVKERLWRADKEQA
UniProt P40261, sequence (whole entry, looked up): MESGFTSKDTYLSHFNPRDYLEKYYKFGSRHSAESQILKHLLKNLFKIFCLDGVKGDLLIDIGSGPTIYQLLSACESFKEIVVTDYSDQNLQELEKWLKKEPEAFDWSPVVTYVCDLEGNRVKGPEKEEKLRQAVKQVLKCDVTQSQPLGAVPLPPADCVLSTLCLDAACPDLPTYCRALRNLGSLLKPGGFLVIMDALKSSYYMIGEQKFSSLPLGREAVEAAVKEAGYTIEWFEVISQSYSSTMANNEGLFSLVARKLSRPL

SMILES | tested on | test | test system | setting | scale | quantity | value
COCc1nn(Cc2ccc(Cn3ccccc3=O)cc2)cc1C(=O)NCc1nccc(Cl)c1F | F11 |  |  |  |  | IC50 | > 40 µM
C#CCN(Cc1cnc2nc(N)nc(N)c2n1)c1ccc(C(=O)N2CCC(C(=O)OC)CC2)cc1 | TYMS | inhibitor |  |  |  | IC50 | > 100 µM
COC(=O)c1ccc(-c2nc(-c3cccc(C)c3)c(-c3ccncc3)[nH]2)cc1 | TGFBR1 | binding, LanthaScreen kinase binding |  |  |  | IC50 | 2.68 ± 0.449 µM
COc1ccc(CNC(=O)c2ccc(CNCc3cnc4nc(N)nc(N)c4n3)cc2)cc1OC | TYMS | inhibitor |  |  |  | IC50 | > 100 µM
O=C1OC2COC(=O)C2C=C1NC(=O)c1ccc(Cl)cc1 (stereo not drawn) | Protein lin-28 homolog A |  |  |  |  | IC50 | 8.1 µM
Fc1ccc(-c2nc[nH]c2-c2ccncc2)cc1 | TGFBR1 | binding, LanthaScreen kinase binding |  |  |  | IC50 | 1.571 ± 0.014 µM
O=C(O)c1cc(O)c2c(c1)C(=O)c1cccc(O[C@@H]3O[C@H](CO)[C@@H](O)[C@H](O)[C@H]3O)c1C2=O | HK-2 co-cultured with HepaRG | MTT |  | 33.33 µM, 24 h | reference: untreated control | cell viability | 105 ± 9.96%
O=C(Nc1cccc2c(=O)cc(-c3nnn[nH]3)oc12)c1ccc(OCCCCc2ccccc2)cc1 | LRRC8A/LRRC8C (Homo sapiens, UniProt Q8IWT6+Q8TDW0, M48D/T48D) | whole-cell patch clamp | HCT116 LRRC8-/- expressing heteromers | -100 mV |  | IC50 | no effect
CCCC(C)N1CCC(N(Cc2ccccc2NC(=O)CCl)C(=O)Nc2cccc(C(F)(F)F)c2)CC1 (stereo not drawn) | DCN1-like protein 1 PONY domain | binding, inhibitor, TR-FRET |  | 24 h, racemic mixture |  | IC50 | 0.256 ± 0.062 µM
Cc1cccc(-c2nc[nH]c2-c2ccncc2)c1 | TGFBR1 | binding, LanthaScreen kinase binding |  |  |  | IC50 | 2 ± 0.0775 µM
Cc1cc(Nc2cc(CN3CCOCC3)c3nc(C)c(Cc4ccc(Cl)cc4F)n3n2)n[nH]1 | JAK2 | enzyme activity, inhibitor |  |  |  | IC50 | 0.00252 ± 0.00049 µM
CCCCOc1cc(C(=O)NCCN(CC)CC)c2ccccc2n1 | PKD2L1 (Homo sapiens, UniProt Q9P0L9, F549H) | ion current, inhibitor |  | F549H |  | IC50 | 17.5 µM
CCOc1ccnc(CNC(=O)c2cn(Cc3ccc(Cn4ccccc4=O)cc3)nc2COC)c1F | F11 |  |  |  |  | IC50 | > 40 µM
Nc1ccnc(-c2ccccc2)c1 | TMEM175 (Homo sapiens, UniProt Q9BSA9) | potassium flux, inhibitor | proteoliposomes |  |  | IC50 | ~31 µM
O=C(CSc1n[nH]c(-c2ccccc2Cl)n1)c1ccc(O)c(O)c1 | Protein lin-28 homolog A |  |  |  |  | IC50 | 22.4 µM
C=CC(=O)NCc1cccc(CN(C(=O)Nc2cccc(C(F)(F)F)c2)C2CCN(C(C)CCC)CC2)c1 (stereo not drawn) | DCN1-like protein 1 PONY domain | binding, inhibitor, TR-FRET |  | 24 h, racemic mixture |  | IC50 | 0.066 ± 0.038 µM
C=Cc1ccccc1 | Cytochrome P450 2A13 (Homo sapiens, UniProt Q16696) | enzyme activity, inhibitor |  | 20 min, pH 7.4 |  | IC50 | > 200 µM
COc1cc2c(c(OC)c1OC)-c1c(cc(OC)c(OC)c1OC)C[C@H](C)[C@H](C)C2 | CYP3A, rat | poziotinib metabolism to M1, inhibitor | rat liver microsomes, 0.3 mg/mL | 30 min, with: poziotinib 5 µM |  | IC50 | 30.7 µM
Nc1nc(N)c2nc(CNc3ccc(C(=O)c4ccccc4)cc3)cnc2n1 | TYMS | inhibitor |  |  |  | IC50 | > 100 µM
CCCCCC/C=C1\C=C(C(F)(F)F)c2cc3c(cc21)OCO3 | Thioredoxin (TXN, Homo sapiens, UniProt P10599) | insulin reduction, inhibitor |  | 1 h, 37 °C, preincubation |  | IC50 | no inhibition
COc1ccc(Oc2ccc(CNCc3cnc4nc(N)nc(N)c4n3)cc2)cc1 | TYMS | inhibitor |  |  |  | IC50 | > 100 µM
Cc1[nH]c2ccccc2c1CCNCc1ccc(/C=C/C(=O)NO)cc1 | hdac10 (Danio rerio, UniProt F1QCV2) |  |  |  |  | IC50 | 0.05 ± 0.007 µM
Nc1ccc(C(=O)NCC(=O)O)cc1 | THP-1 | pyroptotic LDH release |  | 2 µM, 40 min, with: LPS then nigericin |  | inhibition | -3.65%
COc1ccc([N+](=O)[O-])cc1-c1nc(-c2ccc(F)cc2)c(-c2ccncc2)[nH]1 | TGFBR1 | binding, LanthaScreen kinase binding |  |  |  | IC50 | 0.915 ± 0.011 µM
NC(=O)c1cccc2c1O/C(=C\c1ccc(C(=O)N3CCN(c4nc5cc(F)ccc5[nH]4)CC3)s1)C2=O | PARP1 | inhibitor |  |  |  | IC50 | 0.037 µM
O=c1nc(SCc2cc(F)cc(C(F)(F)F)c2)nc(SCc2ccc3nc(Cl)ccc3c2)[nH]1 | TOP2A (Homo sapiens, UniProt P11388) | ATPase activity, inhibitor, competitive ATPase |  | with: 0.5 mM ATP |  | IC50 | 26.1 µM

SMILES | tested on | test | test system | setting | scale | quantity | value
COc1ccc2c(=O)[nH]c3c(nnn3Cc3ccc(C)cc3)c2c1 | PARP4 (Homo sapiens, UniProt Q9UKK3) |  |  |  |  | IC50 | 7.41 µM
Cc1ccc2nc(-c3ccc(N=NNc4ccc(-c5nc6ccc(C)c(S(=O)(=O)O)c6s5)cc4)cc3)sc2c1S(=O)(=O)O | Luciferin 4-monooxygenase (Photinus pyralis, UniProt P08659) | enzyme activity, inhibitor, luciferase |  |  |  | IC50 | 2.8 µM
Cc1ccc(S(=O)(=O)Nc2ccc(C)cc2NS(=O)(=O)c2cccc(C(F)(F)F)c2)cc1 | Protein lin-28 homolog A |  |  |  |  | IC50 | 14.8 µM
C/C(=C\CNc1ncnc2[nH]cnc12)CO | Gelsolin, N184K peptide (GSN, Homo sapiens, UniProt P06396) |  |  |  |  | IC50 | 19 ± 1.7 µM
CC#CC(=O)N[C@H]1CCCN(c2c(F)cc(C(N)=O)c3[nH]c(C)c(C)c23)C1 | JAK2 |  |  |  |  | IC50 | > 5 µM
Nc1nc(N)c2nc(CNCc3ccc(Oc4ccccc4)cc3)cnc2n1 | TYMS | inhibitor |  |  |  | IC50 | > 100 µM
CC[C@@H]1[C@H](F)C(=O)N[C@@H]1COc1nccc2cc(C(N)=O)c(OC)cc12 | MLKL (Homo sapiens, UniProt Q8NB16) | ATP-site probe binding, inhibitor, ActivX ATP probe profiling | THP-1 cell lysate | probe site Lys1 |  | IC50 | 1.5 µM
Cc1cccc(-c2nc(-c3ccc([N+](=O)[O-])cc3)[nH]c2-c2ccncc2)c1 | TGFBR1 | binding, LanthaScreen kinase binding |  |  |  | IC50 | 0.689 ± 0.142 µM
CCCC(C)N1CCC(N(Cc2ccccc2NC(=O)CC)C(=O)Nc2cccc(C(F)(F)F)c2)CC1 (stereo not drawn) | DCN1-like protein 1 PONY domain | inhibitor, TR-FRET |  | preincubation one hour |  | IC50 | 1.34 ± 0.152 µM
CCn1c(-c2nc3cc(C(=O)N4CCC[C@@H](N)C4)cc(OC)c3n2C)cc2cccnc21 | DRD1 (Homo sapiens, UniProt P21728) | antagonist, TR-FRET |  |  |  | IC50 | > 31.6 µM
Cc1cccc(-c2nc(-c3ccc(NS(C)(=O)=O)cc3)[nH]c2-c2ccncc2)c1 | TGFBR1 | binding, LanthaScreen kinase binding |  |  |  | IC50 | 1.09 ± 0.225 µM
CCc1ccc(NC(=O)Nc2c[nH]c3ccccc23)cc1 | TYRO protein tyrosine kinase-binding protein, with TREM1 (TYROBP, Homo sapiens, UniProt O43914) | split luciferase reporter | human cells | 6 h, treatment 48 h after induction, with: doxycycline induction |  | IC50 | 4.5 ± 2 µM
NC1=NN(c2ccc(Oc3ccccc3)c(S(=O)(=O)O)c2)C(=O)C1 | Protein lin-28 homolog A |  |  |  |  | IC50 | 47.9 µM
CN1CCN(c2ccc(Nc3ncc4cc(C#N)c(=O)n(C5CCCC5)c4n3)cc2)CC1 | cGMP-dependent protein kinase 1, isoform beta (PRKG1, Homo sapiens, UniProt Q13976) |  |  |  |  | IC50 | > 10 µM
NC(=O)c1cccc2c1O/C(=C\c1ccc(C(=O)N3CCC4(CC3)C(=O)Nc3ccccc34)s1)C2=O | PARP1 | inhibitor |  |  |  | IC50 | 0.55 µM
Cc1cnn(Cc2ccc(Cn3cc(C(=O)NCc4ccc5c(N)nccc5c4)cn3)cc2)c1 | F11 |  |  |  |  | IC50 | > 40 µM
CCNc1ccc(C(N)=O)cn1 | NNMT (Homo sapiens, UniProt P40261) | enzyme activity, inhibitor |  |  |  | IC50 | > 25.1 µM
C=C1C(=O)O[C@@]23[C@H]1CC[C@@H](C)[C@@H]2CC[C@@]1(C)O[C@@H]31 | THP-1 | pyroptotic LDH release |  | 2 µM, 40 min, with: LPS then nigericin |  | inhibition | -13.3%
COc1c(O)c(C)cc2c1C(=O)c1c(ccc(O)c1O)C2=O | HK-2 co-cultured with HepaRG | MTT |  | 16.67 µM, 24 h | reference: untreated control | viability | 99.7 ± 11.7%
NC(=O)c1cccc2c1O/C(=C\c1ccc(C(=O)N[C@@H]3CCNC3)s1)C2=O | PARP1 | inhibitor |  |  |  | IC50 | 0.19 µM
Fc1ccc(-c2nc(C3CCCCC3)[nH]c2-c2ccncc2)cc1 | TGFBR1 | binding, LanthaScreen kinase binding |  |  |  | IC50 | 0.251 ± 0.0353 µM
Nc1nc(N)c2nc(CNc3cccc4ccccc34)cnc2n1 | TYMS | inhibitor |  |  |  | IC50 | > 100 µM
NC(=O)c1cccc2c1O/C(=C\c1ccc(C(=O)N3CCCN(c4cccnc4)CC3)s1)C2=O | PARP1 | inhibitor |  |  |  | IC50 | 0.065 µM
C=CC(=O)NCCCN(C(=O)Nc1cccc(C(F)(F)F)c1)C1CCN(C(C)CCC)CC1 (stereo not drawn) | DCN1-like protein 1 PONY domain | binding, inhibitor, TR-FRET |  | 24 h, racemic mixture |  | IC50 | 7.5 ± 1.89 µM
Cc1cccc(-c2nc(-c3ccc(C#N)cc3)[nH]c2-c2ccncc2)c1 | TGFBR1 | binding, LanthaScreen kinase binding |  |  |  | IC50 | 1.57 ± 0.394 µM

Some of these lines once more:
SMILES | tested on | test | test system | setting | scale | quantity | value
COc1cc2c(c(OC)c1OC)-c1c(cc(OC)c(OC)c1OC)C[C@H](C)[C@H](C)C2 | CYP3A, rat | poziotinib metabolism to M1, inhibitor | rat liver microsomes, 0.3 mg/mL | 30 min, with: poziotinib 5 µM |  | IC50 | 30.7 µM
Fc1ccc(-c2nc[nH]c2-c2ccncc2)cc1 | TGFBR1 | binding, LanthaScreen kinase binding |  |  |  | IC50 | 1.571 ± 0.014 µM
CCOc1ccnc(CNC(=O)c2cn(Cc3ccc(Cn4ccccc4=O)cc3)nc2COC)c1F | F11 |  |  |  |  | IC50 | > 40 µM
O=C1OC2COC(=O)C2C=C1NC(=O)c1ccc(Cl)cc1 (stereo not drawn) | Protein lin-28 homolog A |  |  |  |  | IC50 | 8.1 µM
